Measured values gathered from unrelated publications.
Compare with care: the assays were run in different laboratories.
PIK3CA C420R: Phosphatidylinositol 4,5-bisphosphate 3-kinase catalytic subunit alpha isoform (PIK3CA, Homo sapiens, UniProt P42336, C420R)
PIK3CA I800L: Phosphatidylinositol 4,5-bisphosphate 3-kinase catalytic subunit alpha isoform (PIK3CA, Homo sapiens, UniProt P42336, I800L)

| SMILES | target | test | conditions | how to read | remaining binding [%] |
| --- | --- | --- | --- | --- | --- |
| CC(C)=CC1OC(C)(C)C2C=C3C(=O)C(Cl)=CC(O)C3C3C(O)C4OC4C(=O)C132 (centres unmarked) | PIK3CA (Homo sapiens, UniProt P42336, E542K) | cell-free assay, competition with immobilised ligand | 10 µM |  | 63 |
| C=CC(=O)N1CCc2ccc(-n3c(=O)ccc4cnc5ccc(-c6cnn(C)c6)cc5c43)cc21 | PIK3CA C420R | KINOMEscan | 1 µM | baseline: DMSO control | 64 |
| Cc1cnc2nc1Nc1cccc(c1)COC/C=C/COCc1cc(ccc1OCCN1CCOCC1)N2 | PIK3CA C420R | binding | 0.1 µM |  | 83 |
| CNC(=O)C1CCN(c2cc(C)c(F)cc2NC(=O)c2ccc(-c3cc(O)ccc3C)c(C)c2)CC1 | PIK3CA C420R | binding, competition with immobilised ligand | 1 µM |  | 89 |
| Nc1ncc2c(n1)-c1c([nH]c3ccc(C4=CCOCC4)cc13)CCC2 | PIK3CA I800L | binding, competition with immobilised ligand | 1 µM |  | 100 |
| C=CC(=O)N1CCCC(n2c(=O)c3ncccc3n(Cc3ccc(Oc4ccccc4)cc3)c2=O)C1 (centres unmarked) | PIK3CA (Homo sapiens, UniProt P42336, E545K) | cell-free assay, competition with immobilised ligand | 1 µM |  | 68 |
| Cc1ccc(-c2c(/C=C(\C#N)C(=O)NC(C)C)n(CCCO)c3ncnc(N)c23)cc1 | PIK3CA (Homo sapiens, UniProt P42336, H1047Y) | cell-free assay, competition with immobilised ligand | 1 µM |  | 100 |
| CCN1CCN(Cc2ccc(C(=O)Nc3ccc(C)c(NCc4cnc5[nH]ccc5c4OC)c3)cc2C(F)(F)F)CC1 | PIK3CA C420R | binding, competition with immobilised ligand | 1 µM |  | 68 |
| CC(=O)c1cnc(N)nc1N1CC[C@H]1c1nn2ccc(Cl)c2c(=O)n1-c1ccccc1 | PIK3CA (Homo sapiens, UniProt P42336, H1047L) | binding, competition with immobilised ligand | 10 µM |  | 71 |
| CNC1C[S+]2CC[S+]3CC[S+](C1)[Ru-4]321([N]=C=S)[n]2c3ccc(OC)cc3c3c4c(c5cc(F)c[n+]1c5c32)C(=O)NC4=O (centres unmarked) | PIK3CA (Homo sapiens, UniProt P42336, Q546K) | KinomeScan | 0.1 µM | baseline: untreated | 97 |
| COc1c(Cl)cccc1Nc1c(-c2ccncc2C#C[C@@]2(C)CCCN2C(=O)/C=C/CN(C)C)[nH]c2c1C(=O)NCC2 | PIK3CA I800L | binding, competition with immobilised ligand | 3 µM |  | 100 |
